Measurements pooled from the literature.
Parts stem from different laboratories: compare values within a part only.

Block 1
Target: Histone acetyltransferase KAT6A, both winged helices, GST fusion (KAT6A, Homo sapiens, UniProt Q92794, residues 1-181)
Method: protein binding microarray
Form: double-stranded DNA, one strand shown
Matrix: in vitro
Tested at: not given
Notes: 8-mer, flanks averaged, mean of 2 arrays, mostly near background
Baseline: not given
Direction: higher = stronger binding
Measurement: E-score
Construct (chain): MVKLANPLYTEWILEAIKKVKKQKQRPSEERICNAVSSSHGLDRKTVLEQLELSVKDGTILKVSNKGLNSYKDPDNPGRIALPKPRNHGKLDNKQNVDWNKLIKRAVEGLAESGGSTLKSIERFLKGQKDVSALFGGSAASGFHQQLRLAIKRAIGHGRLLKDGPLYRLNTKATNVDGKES
Oligonucleotide = AATTATTA; result = 0.0472
Oligonucleotide = ACGGATCC; result = 0.204
Oligonucleotide = CCTCAGCC; result = -0.269

Block 2
Target: Sal-like protein 4, full length isoform B (SALL4, Homo sapiens, UniProt Q9UJQ4-2, residues 1-616)
Method: universal PBM
Form: double-stranded DNA, one strand shown
Matrix: in vitro
Tested at: not given
Notes: 8-mer, flanks averaged, mean of replicates
Direction: higher = stronger binding
Measurement: E-score
Residues (chain): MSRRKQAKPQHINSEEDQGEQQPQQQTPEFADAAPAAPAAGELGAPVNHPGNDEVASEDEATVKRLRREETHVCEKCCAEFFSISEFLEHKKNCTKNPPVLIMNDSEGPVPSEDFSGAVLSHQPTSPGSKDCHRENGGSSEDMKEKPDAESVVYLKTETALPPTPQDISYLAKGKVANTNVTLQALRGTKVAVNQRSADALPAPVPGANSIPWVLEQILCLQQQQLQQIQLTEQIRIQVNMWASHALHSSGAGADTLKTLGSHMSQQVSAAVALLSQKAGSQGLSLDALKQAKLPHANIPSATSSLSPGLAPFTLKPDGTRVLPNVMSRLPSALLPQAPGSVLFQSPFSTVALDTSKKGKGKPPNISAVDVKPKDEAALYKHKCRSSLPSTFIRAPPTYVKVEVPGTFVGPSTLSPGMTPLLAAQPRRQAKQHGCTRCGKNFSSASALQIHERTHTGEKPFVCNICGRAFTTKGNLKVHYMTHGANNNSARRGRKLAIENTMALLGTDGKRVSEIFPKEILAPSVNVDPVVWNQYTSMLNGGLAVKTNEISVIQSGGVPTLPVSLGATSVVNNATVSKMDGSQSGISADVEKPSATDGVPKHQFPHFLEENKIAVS
Oligonucleotide = GTCTAACA; result = -0.0161
Oligonucleotide = CATAACCC; result = 0.185
Oligonucleotide = GTTACGGA; result = -0.161
Oligonucleotide = AAAACGAC; result = 0.00476

Other studies, line by line
F2 mature alpha-thrombin: Prothrombin, mature alpha-thrombin (F2, Homo sapiens, UniProt P00734)
Substance = GGTTGGTGTGGTTGG (2'F-ANA at 2 4 7 8 9 10 11 12 13 14); target = F2 mature alpha-thrombin; test = aptamer microarray, sandwich; system = DNA with 2'F-ANA, in vitro; setting = 200 nM, whole 15-mer aptamer, many near background, added: Cy3 exosite-II aptamer, 400 nM; how to read = higher = stronger binding; measurement = mean fluorescence intensity; result = 68.5 a.u.
Substance = PhoQ, residues 284 288 289 292 302 303 GTAMQF; target = PhoP, residues 12 14 15 18 19 LYHSL (Escherichia coli, UniProt P23836); test = Sort-seq, measured: YFP reporter; system = E. coli; setting = PhoQ-PhoP variant library, added: 10 µM Mg2+; how to read = baseline: high Mg2+ state, higher = stronger signaling; measurement = fold induction; result = 11.1
Substance = GGTTGGTGTGGTTGG (2'F-ANA at 1 3 7 9 10); target = F2 mature alpha-thrombin; test = aptamer microarray, sandwich; system = DNA with 2'F-ANA, in vitro; setting = 200 nM, whole 15-mer aptamer, many near background, added: Cy3 exosite-II aptamer, 400 nM; how to read = higher = stronger binding; measurement = mean fluorescence intensity; result = 99.3 a.u.

Repeated from above (block 2):
Oligonucleotide = GTTACGGA; result = -0.161
